Measurements collected from several papers.
Lines come from different studies, so protocols differ. Several values in a cell are separate wells, animals, samples, runs or records. ± gives the spread as reported.

COc1ccccc1-c1n[nH]c2nc(NC3CCN(C(=O)Cc4ccc(F)cc4F)CC3)ncc12  relative abundance (bead binding, competition bead pull-down, refers to: LINJ.28.2610; Leishmania donovani extract; 10 µM; relative to: vehicle): 1.13
CCCCCC1=C(NCC)C(=O)C(C/C=C(\C)CCC=C(C)C)=C(O)C1=O  log2 fold change (RNA-Seq, refers to: Oasl2; lesioned mice, striatum; dose not given; relative to: untreated lesioned mice): 1.3
CN[C@@H]1C[C@H]2O[C@@](C)([C@@H]1OC)n1c3ccccc3c3c4c(c5c6ccccc6n2c5c31)C(=O)NC4  early apoptotic cells (annexin V flow cytometry; pancreatic islet cells, mouse; 1 µM, 24 h): 34.6%
O=C(O)c1ccc(-c2nc(-c3ccccc3Cl)c3sccn23)cc1  spleen weight (mouse; dose not given, day 11, together with: 5-fluorouracil; relative to: body weight): 0.0051% and 0.0035% and 0.0048% and 0.0043%
CSCC[C@H](NC(=O)[C@@H](NC(=O)[C@H](CCC(N)=O)NC(=O)[C@H](CO)NC(=O)[C@@H](N)C(C)C)[C@@H](C)O)C(=O)N[C@@H](CCCNC(=N)N)C(=O)N[C@@H](CCC(N)=O)C(=O)N[C@H](C(=O)N[C@@H](C)C(=O)N[C@H](C(=O)N1CCC[C@H]1C(=O)N[C@@H](CC(C)C)C(=O)N[C@@H](CC(C)C)C(=O)N[C@@H](Cc1c[nH]c2ccccc12)C(=O)N[C@@H](Cc1ccccc1)C(=O)N[C@@H](Cc1c[nH]c2ccccc12)C(=O)N[C@H](C(=O)NCC(=O)N[C@@H](CO)C(=O)N[C@@H](CC(C)C)C(=O)NCCOCCOCCOCCOCCOCCOCCOCCOCCOCCOCCOCCOCCC(=O)N[C@@H](CS)C(N)=O)[C@@H](C)O)C(C)C)[C@@H](C)O  number of cell lines (phage binding; NSCLC cell line panel; selectivity at least 20): 8
O=C(NCc1cc(F)cc(F)c1)[C@@]1(O)CCN(c2ccc3[nH]ccc3c2)C1=O  median survival time (sample I PDX mouse; dose not given, RTV endpoint 500%): 31 days
Cc1ccc(C2=CC(C)(C)Oc3ccc(-c4ccc(-c5ccc(C(=O)O)cc5)[nH]4)cc32)cc1  spermatids failing translocation (histology; CD1 mouse male, testis; 20 mg/kg/day for 2 weeks, 1 day after end of dosing, males with severe disruption): 7.7%
COc1ccccc1-c1n[nH]c2nc(N[C@H]3CC[C@H](NS(=O)(=O)CC(C)C)CC3)ncc12  relative abundance (bead binding, competition bead pull-down, refers to: LINJ.36.4380; Leishmania donovani extract; 10 µM; relative to: vehicle): 0.8
CC(C)C[C@@H]1NC(=O)[C@@H](Cc2c[nH]c3ccccc23)NC(=O)[C@H](CCCNC(=N)N)NC(=O)[C@@H](CCC(=O)O)NC(=O)[C@H](CCC(N)=O)NC(=O)[C@@H](CCC(=O)O)NC(=O)[C@H](CCCNC(=N)N)NC(=O)[C@@H](Cc2c[nH]c3ccccc23)NC1=O  cytokine level (Luminex, refers to: IL-12p70; LDLr-/- mice, Western diet, liver; dose not given, 4 weeks): 270 ± 140 pg/g tissue
C[C@]12C(=O)[C@](C)(C(c3ccccc3)=C1c1ccccc1)C1(Br)C(=O)N(CCN)C(=O)C12 (some centres unmarked)  time to 50% conversion (HPLC, refers to: CO-release by-product; TRIS-sucrose buffer; pH 7.4, 4-5 °C): 1160 min and 2080 min and 1430 min and 2280 min and 2260 min
CCc1nnc(-c2c(OC)cc(-c3cnc4cc(-c5cnn(C)c5)ccn34)cc2OC)o1  osteoid volume/bone volume (histomorphometry; male C57BL/6J mouse, tibia; oral gavage, 10 mg/kg once daily, 3 wk): 0.238 ± 0.0735%

Repeated from above:
CN[C@@H]1C[C@H]2O[C@@](C)([C@@H]1OC)n1c3ccccc3c3c4c(c5c6ccccc6n2c5c31)C(=O)NC4  early apoptotic cells (annexin V flow cytometry; pancreatic islet cells, mouse; 1 µM, 24 h): 34.6%
